# Published values of several laboratories.
# Lines come from different studies, so protocols differ. No end group written: not given here.
# FGFR3 isoform IIIc: FGFR3 isoform IIIc (unknown, UniProt Q61851)
# UniProt Q61851, sequence (whole entry, looked up): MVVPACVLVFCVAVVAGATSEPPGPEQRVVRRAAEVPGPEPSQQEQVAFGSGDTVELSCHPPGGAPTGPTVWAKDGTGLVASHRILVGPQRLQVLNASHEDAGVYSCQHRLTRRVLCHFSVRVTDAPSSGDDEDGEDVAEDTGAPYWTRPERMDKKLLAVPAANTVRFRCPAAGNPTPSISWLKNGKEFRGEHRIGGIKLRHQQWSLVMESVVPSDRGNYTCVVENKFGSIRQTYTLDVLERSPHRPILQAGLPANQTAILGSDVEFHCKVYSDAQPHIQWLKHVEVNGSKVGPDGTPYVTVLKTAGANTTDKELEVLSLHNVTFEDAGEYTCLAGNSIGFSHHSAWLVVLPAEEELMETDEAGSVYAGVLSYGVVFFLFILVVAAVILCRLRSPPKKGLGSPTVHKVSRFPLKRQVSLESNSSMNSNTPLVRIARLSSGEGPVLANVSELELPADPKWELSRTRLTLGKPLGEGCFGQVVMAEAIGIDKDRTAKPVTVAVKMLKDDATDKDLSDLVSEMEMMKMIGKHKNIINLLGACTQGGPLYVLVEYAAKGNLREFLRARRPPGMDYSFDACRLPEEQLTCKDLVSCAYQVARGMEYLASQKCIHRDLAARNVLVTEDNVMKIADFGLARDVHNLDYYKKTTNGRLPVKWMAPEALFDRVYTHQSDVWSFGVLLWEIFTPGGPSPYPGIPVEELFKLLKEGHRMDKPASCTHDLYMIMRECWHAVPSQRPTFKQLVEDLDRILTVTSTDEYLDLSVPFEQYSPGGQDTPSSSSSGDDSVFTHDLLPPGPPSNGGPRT
# H2-Ab1/H2-Aa: H2-Ab1/H2-Aa (Mus musculus, UniProt P01921+P04228)
# UniProt P04228, sequence (whole entry, looked up): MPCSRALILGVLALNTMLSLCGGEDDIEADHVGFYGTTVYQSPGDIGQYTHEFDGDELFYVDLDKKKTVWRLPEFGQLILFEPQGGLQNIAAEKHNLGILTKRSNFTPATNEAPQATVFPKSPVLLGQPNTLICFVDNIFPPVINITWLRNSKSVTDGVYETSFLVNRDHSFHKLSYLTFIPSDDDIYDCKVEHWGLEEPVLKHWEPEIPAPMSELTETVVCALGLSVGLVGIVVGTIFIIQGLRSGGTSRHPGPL
# UniProt P01921, sequence (whole entry, looked up): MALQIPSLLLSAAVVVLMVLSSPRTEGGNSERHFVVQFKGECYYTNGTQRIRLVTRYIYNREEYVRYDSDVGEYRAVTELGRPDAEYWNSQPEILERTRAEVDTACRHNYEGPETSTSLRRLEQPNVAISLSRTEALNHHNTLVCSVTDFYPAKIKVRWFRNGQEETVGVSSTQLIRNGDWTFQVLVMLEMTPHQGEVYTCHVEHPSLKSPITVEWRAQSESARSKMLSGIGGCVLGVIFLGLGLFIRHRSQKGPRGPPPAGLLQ
# T1: HSP90AA1 723-732 C-terminal peptide M to I, N-terminal 5-carboxyfluorescein (Homo sapiens); DDTSRIEEVD
# B1: FGF6 (Homo sapiens, UniProt P10767); chain SPAGTRANNTLLDSRGWGTLLSRSRAGLAGEIAGVNWESGYLVGIKRQRRLYCNVGIGFHLQVLPDGRISGTHEENPYSLLEISTVERGVVSLFGVRSALFVAMNSKGRLYATPSFQEECKFRETLLPNNYNAYESDLYQGTYIALSKYGRVKRGSKVSPIMTVTHFLPRI
# B2: STUB1 (Homo sapiens, UniProt Q9UNE7); sequence looked up; chain MKGKEEKEGGARLGAGGGSPEKSPSAQELKEQGNRLFVGRKYPEAAACYGRAITRNPLVAVYYTNRALCYLKMQQHEQALADCRRALELDGQSVKAHFFLGQCQLEMESYDEAIANLQRAYSLAKEQRLNFGDDIPSALRIAKKKRWNSIEERRIHQESELHSYLSRLIAAERERELEECQRNHEGDEDDSHVRAQQACIEAKHDKYMADMDELFSQVDEKRKKRDIPDYLCGKISFELMREPCITPSGITYDRKDIEEHLQRVGHFDPVTRSPLTQEQLIPNLAMKEVIDAFISENGWVEDY
# B3: UGT1A9 (Homo sapiens, UniProt O60656); chain GKLLVVPMDGSHWFTMRSVVEKLILRGHEVVVVMPEVSWQLGRSLNCTVKTYSTSYTLEDLDREFKAFAHAQWKAQVRSIYSLLMGSYNDIFDLFFSNCRSLFKDKKLVEYLKESSFDAVFLDPFDNCGLIVAKYFSLPSVVFARGILCHYLEEGAQCPAPLSYVPRILLGFSDAMTFKERVRNHIMHLEEHLLCHRFFKNALEIASEILQTPVTEYDLYSHTSIWLLRTDFVLDYPKPVMPNMIFIGGINCHQGKPLPMEFEAYINASGEHGIVVFSLGSMVSEIPEKKAMAIADALGKIPQTVLWRYTGTRPSNLANNTILVKWLPQNDLLGHPMTRAFITHAGSHGVYESICNGVPMVMMPLFGDQMDNAKRMETKGAGVTLNVLEMTSEDLENALKAVINDKSYKENIMRLSSLHKDRPVEPLDLAVFWVEFVMRHKGAPHLRPAAHDLTWYQYHSLDVIGFLLAVVLTVAFITFKCCAYGYRKCLGKKGRVKKAHKSKTH
# UniProt Q9H4B4, sequence (whole entry, looked up): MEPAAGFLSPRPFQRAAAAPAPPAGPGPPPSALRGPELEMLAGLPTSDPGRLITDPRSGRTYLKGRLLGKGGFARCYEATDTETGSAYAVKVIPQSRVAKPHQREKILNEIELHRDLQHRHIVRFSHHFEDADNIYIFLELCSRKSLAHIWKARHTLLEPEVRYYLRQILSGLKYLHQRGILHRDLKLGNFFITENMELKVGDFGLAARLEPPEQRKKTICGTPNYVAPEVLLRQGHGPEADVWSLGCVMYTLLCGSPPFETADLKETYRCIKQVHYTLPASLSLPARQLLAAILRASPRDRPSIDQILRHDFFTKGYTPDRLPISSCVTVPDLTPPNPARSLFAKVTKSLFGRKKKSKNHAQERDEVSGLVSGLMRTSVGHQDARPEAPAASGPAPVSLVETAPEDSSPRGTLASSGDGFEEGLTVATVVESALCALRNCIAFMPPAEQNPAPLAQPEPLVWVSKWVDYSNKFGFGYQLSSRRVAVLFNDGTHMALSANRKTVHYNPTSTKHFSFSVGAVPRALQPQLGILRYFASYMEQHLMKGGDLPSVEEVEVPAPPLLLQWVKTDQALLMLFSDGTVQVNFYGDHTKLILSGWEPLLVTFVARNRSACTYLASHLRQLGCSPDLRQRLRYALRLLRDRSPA
# UniProt P55075, sequence (whole entry, looked up): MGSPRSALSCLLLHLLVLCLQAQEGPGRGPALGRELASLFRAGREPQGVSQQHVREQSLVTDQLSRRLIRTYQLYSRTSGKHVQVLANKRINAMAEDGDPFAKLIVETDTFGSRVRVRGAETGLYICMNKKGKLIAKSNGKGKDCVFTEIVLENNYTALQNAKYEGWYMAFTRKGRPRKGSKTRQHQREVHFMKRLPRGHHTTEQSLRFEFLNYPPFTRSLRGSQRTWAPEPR
Substance,target or system,assay,test system,conditions,scale,quantity,value
"FGF8 (Homo sapiens, UniProt P55075)",FGFR3 isoform IIIc,"cell proliferation, MTT",BaF3-FGFR3c,"20 nM, 48 h, with: completely desulfated heparin 4.9 µg/mL","baseline: FGF 1 with heparin, higher = more proliferation",cell proliferation,66%
HNTNGATAACSHE (HA(126-138) V131A),H2-Ab1/H2-Aa,"class II-peptide complex dissociation, SEC-HPLC fluorescence","peptide, soluble I-A FITC-peptide complex","pH 5.3, 37 °C, with: unlabeled Eα 5 µM",,half-life,0.9 h
B1 (FGF6),FGFR3 isoform IIIc,"cell proliferation, MTT",BaF3-FGFR3c,"20 nM, 48 h, with: heparan sulfate 4.9 µg/mL","baseline: FGF 1 with heparin, higher = more proliferation",cell proliferation,17%
MMP2 fragment (Homo sapiens),"COL1A1/COL1A2 denatured, gelatin (Homo sapiens)",DQ-gelatin fluorescence,,"10 nM, 25 °C",higher = faster hydrolysis,hydrolysis rate,0.306 RFU/s
"GLHST (FITC-labelled, PEGylated)","Serine/threonine-protein kinase PLK3, polo-box domain (PLK3, Homo sapiens, UniProt Q9H4B4)","binding, fluorescence polarization",,"polo-box domain, with: FITC-labelled peptide",,Kd,> 2.56 µM
B2 (STUB1),"T1, HSP90AA1 723-732 C-terminal peptide M to I, N-terminal 5-carboxyfluorescein (Homo sapiens)",fluorescence polarisation,,"DnaJC7, mutant tracer, with: 5-Fam peptide tracer 20 nM","baseline: wt Hsp90α tracer, higher = stronger binding",affinity change,> 2 fold
"AMKQHGLDAYRSYSL (HEL(11–25) R14Q/N19A/G22S; also: fluorescein (FITC) label, position not given here)",H2-Ab1/H2-Aa,"class II-peptide complex dissociation, SEC-HPLC fluorescence","peptide, soluble I-A FITC-peptide complex","pH 5.3, 37 °C, with: unlabeled Eα 5 µM",,half-life,33 h
TKAARKS (acetyl-Lys27),"Protein AF-9, YEATS domain (Homo sapiens, UniProt P42568)","binding, isothermal titration calorimetry",,with: acetylated histone peptides,,Kd,7 µM
B3 (UGT1A9),O=c1c(O)c(-c2ccc(O)cc2O)oc2cc(O)cc(O)c12,steady-state kinetics,,"pH 7.4, 37 °C",,Vmax/Km,60 µL/min/mg

# Repeated from above:
Substance,target or system,assay,test system,conditions,scale,quantity,value
"FGF8 (Homo sapiens, UniProt P55075)",FGFR3 isoform IIIc,"cell proliferation, MTT",BaF3-FGFR3c,"20 nM, 48 h, with: completely desulfated heparin 4.9 µg/mL","baseline: FGF 1 with heparin, higher = more proliferation",cell proliferation,66%
